Assay results pooled from the literature.
Each numbered part is a random draw from the data of one study; scales do not carry over between parts. Substitutions count along the parent as printed.

Series 1 — method: RNAcompete; molecule type: RNA; matrix: in vitro; tested at: 20 nM; notes: 7-mer, probes averaged, single round; reference: mean of 7-mers; direction: higher = stronger binding; measurement: 7-mer Z-score
Target: PABPC1L2, full length, GST fusion (mouse, UniProt A0ABA7IW68)
Residues (chain): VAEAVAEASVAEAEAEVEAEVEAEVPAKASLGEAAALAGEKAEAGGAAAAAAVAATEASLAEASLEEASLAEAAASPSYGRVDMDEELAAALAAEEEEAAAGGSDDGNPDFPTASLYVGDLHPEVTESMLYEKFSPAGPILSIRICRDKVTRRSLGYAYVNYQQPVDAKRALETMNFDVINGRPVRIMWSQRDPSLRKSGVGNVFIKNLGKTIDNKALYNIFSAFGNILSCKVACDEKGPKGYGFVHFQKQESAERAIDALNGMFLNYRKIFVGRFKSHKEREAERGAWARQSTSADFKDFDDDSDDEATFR
AGCGUAC: -0.159
GAAGCUG: -0.00289
AGCUUGG: 0.066
CUUAGUA: -0.151
UCAGUAC: -0.226
GAGGAAA: 0.785
GCGUAGC: -0.179
CCAAACA: 1.53
UCAAGGA: -0.0373
AACAUCA: 0.561

Series 2 — method: universal PBM; molecule type: double-stranded DNA, one strand shown; matrix: in vitro; tested at: 600 nM; direction: higher = stronger binding; measurement: E-score
Target: Sal-like protein 4, full length isoform A (SALL4, Homo sapiens, UniProt Q9UJQ4, residues 1-1053)
Sequence of UniProt Q9UJQ4 (whole entry, looked up): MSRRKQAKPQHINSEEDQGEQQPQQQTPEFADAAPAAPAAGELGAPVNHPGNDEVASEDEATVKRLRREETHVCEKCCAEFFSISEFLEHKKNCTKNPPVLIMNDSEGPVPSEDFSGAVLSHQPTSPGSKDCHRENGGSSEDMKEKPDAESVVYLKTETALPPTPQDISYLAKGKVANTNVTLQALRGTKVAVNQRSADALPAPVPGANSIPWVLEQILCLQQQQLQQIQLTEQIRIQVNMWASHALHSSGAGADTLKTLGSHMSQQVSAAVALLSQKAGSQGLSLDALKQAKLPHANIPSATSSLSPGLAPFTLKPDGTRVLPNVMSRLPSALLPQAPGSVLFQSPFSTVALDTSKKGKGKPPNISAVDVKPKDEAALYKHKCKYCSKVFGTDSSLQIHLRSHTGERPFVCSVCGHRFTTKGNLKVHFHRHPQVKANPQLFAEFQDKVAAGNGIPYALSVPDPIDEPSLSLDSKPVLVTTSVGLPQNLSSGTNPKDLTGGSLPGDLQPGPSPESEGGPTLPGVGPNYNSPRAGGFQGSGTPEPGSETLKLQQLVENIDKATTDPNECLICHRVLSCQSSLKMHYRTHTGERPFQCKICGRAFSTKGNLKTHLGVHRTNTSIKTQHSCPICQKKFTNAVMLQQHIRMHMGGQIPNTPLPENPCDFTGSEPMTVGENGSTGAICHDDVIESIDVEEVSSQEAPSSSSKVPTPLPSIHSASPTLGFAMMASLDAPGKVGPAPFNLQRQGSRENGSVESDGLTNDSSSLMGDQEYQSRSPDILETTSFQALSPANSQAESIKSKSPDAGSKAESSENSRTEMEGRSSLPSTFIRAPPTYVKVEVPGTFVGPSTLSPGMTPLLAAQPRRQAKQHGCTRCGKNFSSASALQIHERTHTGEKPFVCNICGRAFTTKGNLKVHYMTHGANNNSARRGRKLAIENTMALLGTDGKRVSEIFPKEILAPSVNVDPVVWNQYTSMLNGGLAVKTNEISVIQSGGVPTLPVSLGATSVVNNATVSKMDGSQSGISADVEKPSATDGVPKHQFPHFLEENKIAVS
Notes: 8-mer, flanks averaged, mean of replicates
ATCACGTC: 0.00437
GCATTCCA: -0.0287
AAACTACT: 0.201
AGCAAGCT: -0.179
CGCTGTCC: -0.151
CCCCATCG: -0.277
ATTGGTGA: 0.191
ATTGAATC: 0.196
ACGGCACC: -0.317
GCCGTGAC: -0.0443
CAAAACAC: 0.123
GCGCTTAA: -0.145
AACTGAAA: 0.225
AAGAGAGC: -0.18
CGCCGTCA: -0.257
AGTCTGCC: -0.165
AAGCGTGC: -0.142
AGGTTTTG: -0.0654
TAGCACAA: 0.0469
AGATACCC: 0.0491
CATCTTAA: 0.144
AATTCAGT: 0.108
AAACGGTA: 0.0854
AGTGCTGG: -0.0991
CGGATACC: -0.0839

Series 3 — method: protein-binding microarray; molecule type: double-stranded DNA, one strand shown; matrix: in vitro; tested at: 250 nM; notes: 60-bp whole probe; with: salmon DNA 0.4 mg/ml; reference: random background probes; direction: higher = stronger binding; measurement: log fluorescence; shared flanks, not repeated: GCCTAGCAC … GTCTTGATTCGCTTGACGCTGCTG
Target: Interferon regulatory factor 5, full length, phosphomimetic (IRF5, Homo sapiens, UniProt Q13568-2, residues 1-514, K96S/S451D/S453D/S456D/S462D)
GGGGATAAACTTAATGGATGGTGCTAG: -0.342 z-score
GACGGACTGGGATTTCGGGACGTGCTA: 0.327 z-score
TCAAAATGATTGGTTGAACTGTGCTAG: 0.186 z-score
TCATGTACATCTCTCTTACTGTGCTAG: 0.524 z-score
TGTGTCCTGGCTTTGACTCTGTGCTAG: -0.498 z-score
TTACGACTGGGTTTCGGTTAGTGCTAG: 8.53 z-score
TTAGAACTGAGTTTCGATCAGTGCTAG: 9.11 z-score
TTTGGTATCGGACTGGGTTAGTGCTAG: 3.2 z-score
GACGGACAGGGACTGGGGACGTGCTAG: -0.488 z-score
TCAGGTCTCTAACTCAAACTGTGCTAG: -0.142 z-score

Series 4 — method: RNA Bind-n-Seq; molecule type: RNA; matrix: in vitro; tested at: 200 nM; notes: whole 134-nt RNA, ends assumed; with: 150 mM LiCl; reference: input library; direction: higher = stronger binding; measurement: log2 enrichment; library: 7-deaza-guanosine replaces G
Target: Ras GTPase-activating protein-binding protein 1, full length (G3BP1, Homo sapiens, UniProt Q13283)
Sequence of UniProt Q13283 (whole entry, looked up): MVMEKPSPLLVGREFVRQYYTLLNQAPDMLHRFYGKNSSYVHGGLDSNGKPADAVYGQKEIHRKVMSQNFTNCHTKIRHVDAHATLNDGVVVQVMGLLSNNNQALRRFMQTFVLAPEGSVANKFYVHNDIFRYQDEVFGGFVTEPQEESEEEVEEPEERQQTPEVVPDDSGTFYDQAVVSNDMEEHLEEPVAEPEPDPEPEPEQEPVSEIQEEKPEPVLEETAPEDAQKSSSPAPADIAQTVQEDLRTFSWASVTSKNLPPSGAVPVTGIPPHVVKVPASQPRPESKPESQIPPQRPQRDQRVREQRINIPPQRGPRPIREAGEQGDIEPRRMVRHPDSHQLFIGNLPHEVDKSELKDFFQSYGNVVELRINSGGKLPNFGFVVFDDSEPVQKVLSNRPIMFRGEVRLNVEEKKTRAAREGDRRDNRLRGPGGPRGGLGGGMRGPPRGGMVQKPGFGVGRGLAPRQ
Shared flanks, not repeated: GGGAGUUCUACAGUCCGACGAUC … UGGAAUUCUCGGGUGUCAAGG
UGGGAGGUGGAUUUUGUUUAUUUUUUUAGCUCGUUUCCAGGGGUGGGAAUUUUUUUUUAAUAUGUGUCAUGAAUAAAGUUGUUUUUGAAA: 0.235
GGGCCCUGGUGGCAUGCGGGGAGGAAGAGGUGGCCUCAUGGAUCGUGGUGGUCCCGGUGGAAUGUUCAGAGGUGGCCGUGGUGGAGACAG: 0.32
GUCCUGUGCUACACAUCGUAUGUACCGAAUCAAAUUUUUUUAAACCCCCAAACCCAAAAAAGUAUUAUGUUACGCCGUUCGGAUCUGCAC: 1.01
AAGUCCUGUGCUACACAUCGUAUGUACCGAAUCGGGGAAAAGGGAAAAGGAAAAGGAAAGUAUUAUGUUACGCCGUUCGGAUCUGCACUU: -0.253
UCAAGUCCUGUGCUACACAUCGUAUGUACCGAAUCGGAGGUUUGGAAAAAAAGGAAAGUAUUAUGUUACGCCGUUCGGAUCUGCACUUCC: -1.06
UAACUUUAGAGGAGGAUCUGAUGGAAAUGGCAGUGGACGUGGAUUUGGGGAUGGCUAUAAUGGGUAUGGAGGAGGACCUGGAGGUGGCAA: -0.277
CACAGACAACACGCACCCACACAGACACAGAGGGAAGGGGUUGGGAUGGGGACAGGGUGCACAGCAGGGCGGGGUAGGACCCCAGCCCUU: -0.309
AGUCCUGUGCUACACAUCGUAUGUACCGAAUCAAAUUUAAAUUUAAAUUUUUUUAAAAAAGUAUUAUGUUACGCCGUUCGGAUCUGCACU: -2.88

Series 5 — method: DHFR PCA, deep sequencing; matrix: yeast; with: (+)-ABA 0.0091 µM; reference: wild-type fitted maximum; direction: higher = stronger binding; measurement: relative binding score
Target: ABI1, truncated, D143A, DHFR fusion (Arabidopsis thaliana)
Notes: methotrexate growth selection, single substitutions
Parent: PYL1, truncated, DHFR fusion (Arabidopsis thaliana); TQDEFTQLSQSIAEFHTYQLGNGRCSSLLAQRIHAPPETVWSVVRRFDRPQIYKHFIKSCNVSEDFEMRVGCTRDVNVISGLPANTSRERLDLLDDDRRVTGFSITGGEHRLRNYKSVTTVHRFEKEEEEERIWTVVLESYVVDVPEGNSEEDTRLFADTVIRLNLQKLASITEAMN
V143S: -1.54%
S150L: 10.2%
V62H: -8.46%
Y18R: -0.452%
G108F: -9.48%
E67L: 26.4%
E151Y: 9.83%
A13K: 53.2%
E38L: -0.838%
R99A: -7.05%
G81M: 0.516%
T135I: -2.89%
E151D: 9.12%
L156Y: 1.83%

Series 6 — target: CCNA1, cyclin fold, Cln2 fusion (human); method: yeast growth competition, sequencing; matrix: yeast; notes: weak parent motif; reference: not given; direction: higher = stronger binding; measurement: normalised enrichment score
Parent: PKMYT1 docking peptide (human); SFEPRNLLSLFED
SFEPRNLLCLFED [S9C]: 0.0161
GFEPRNLLSLFED [S1G]: 0.336
SFEPRYLLSLFED [N6Y]: 0.188
SFEPRNLLSLHED [F11H]: 0.389
SFEPRNDLSLFED [L7D]: 0.272
SFEARNLLSLFED [P4A]: 0.217
SFEPRNLLSLFET [D13T]: -0.0945
SFEPRNLLSFFED [L10F]: 0.0831
RFEPRNLLSLFED [S1R]: 0.405
SFEPRNLLLLFED [S9L]: 0.123
SFTPRNLLSLFED [E3T]: 0.136
SFECRNLLSLFED [P4C]: 0.13
SFEPRNLLPLFED [S9P]: 0.322
SFMPRNLLSLFED [E3M]: 0.0941
SFEPRNLLSLFEK [D13K]: 0.0428
SKEPRNLLSLFED [F2K]: 0.323
DFEPRNLLSLFED [S1D]: 0.143

A few entries again (series 2):
CGCTGTCC: -0.151
AAACTACT: 0.201
AAGCGTGC: -0.142
AGTCTGCC: -0.165
AACTGAAA: 0.225
AGTGCTGG: -0.0991
ATCACGTC: 0.00437
ATTGAATC: 0.196
AAGAGAGC: -0.18
GCCGTGAC: -0.0443
ACGGCACC: -0.317
AGCAAGCT: -0.179
TAGCACAA: 0.0469
AATTCAGT: 0.108
